# Assay results pooled from the literature.
# Protocols differ between the studies behind these lines. ± marks the error that the study gave.
Structure (SMILES),assay,test system,conditions,how to read,measurement,result
CCCC[C@@H]1NC(=O)[C@H](Cc2ccc(O)cc2)NC(=O)[C@@H]2CCCN2C(=O)[C@H](CC(=O)O)NC(=O)[C@H](C)NC(=O)[C@H](Cc2ccccc2)NC(=O)[C@@H]2CSCCC(=O)N3CN(CN(C3)C(=O)CCSC[C@@H](C(=O)N[C@@H](C)C(N)=O)NC1=O)C(=O)CCSC[C@H](NC(C)=O)C(=O)N[C@@H](CC(C)(C)C)C(=O)N1CCC[C@H]1C(=O)N[C@@H](CCC(=O)O)C(=O)N[C@H](CCCCNC(=O)CCc1cn(CCOCCOCCOCCN(CCOCCOCCOCCC(=O)N[C@H]3CSCCC(=O)N4CN5CN(C4)C(=O)CCSC[C@H](NC(=O)[C@@H](CC(=O)O)NC(=O)[C@H](Cc4cccc6ccccc46)NC(=O)[C@@H]4CCCN4C3=O)C(=O)N[C@@H](CCSC)C(=O)N[C@@H](CCCCNC(=N)N)C(=O)N[C@@H](CC(=O)O)C(=O)N[C@@H](Cc3c[nH]c4ccccc34)C(=O)N[C@@H](CO)C(=O)N[C@@H]([C@@H](C)O)C(=O)N3CCC[C@H]3C(=O)N3C[C@H](O)C[C@H]3C(=O)N[C@@H](Cc3c[nH]c4ccccc34)C(=O)N[C@H](C(N)=O)CSCCC5=O)CCOCCOCCOCCn3cc(CCC(=O)NCCCC[C@H]4NC(=O)[C@H](CCC(=O)O)NC(=O)[C@@H]5CCCN5C(=O)[C@H](CC(C)(C)C)NC(=O)[C@@H](NC(C)=O)CSCCC(=O)N5CN6CN(C5)C(=O)CCSC[C@H](NC(=O)[C@H](Cc5ccc(O)cc5)NC(=O)[C@@H]5CCCN5C4=O)C(=O)N[C@@H](Cc4ccccc4)C(=O)N[C@@H](C)C(=O)N[C@@H](CC(=O)O)C(=O)N4CCC[C@H]4C(=O)N[C@@H](Cc4ccc(O)cc4)C(=O)N[C@@H](CCCC)C(=O)N[C@H](C(=O)N[C@@H](C)C(N)=O)CSCCC6=O)nn3)nn1)C(=O)N1CCC[C@H]1C(=O)N[C@@H](Cc1ccc(O)cc1)C(=O)N2,"NanoString, item: Runx1-mRNA","mouse bearing MC38-Nectin-4 tumour, circulating white blood cells","5 mg/kg, 24 h after dosing, unit not given",relative to: vehicle,mRNA level,1.36
O=C1NC2(CC2)COc2ncc(F)cc2[C@H]2COCCN2c2ccn3ncc1c3n2,,"Sprague-Dawley rat, male, thymus","oral, 5 mg/kg/day, 4 weeks, end of treatment",,organ-to-body weight ratio,0.156 ± 0.026%
O=C(O)c1ccc(-c2nc(-c3ccccc3Cl)c3sccn23)cc1,,"mouse, spleen",dose not given,,splenic vWF+ megakaryocytes,18.8 per high-power field
NNC(=O)c1ccccc1,"hydrazine ligation kinetics, absorbance",,"concentration not given, 40 s, together with: 2-formylphenylboronic acid",,normalised absorbance,0.759
CC(C)C[C@@H]1NC(=O)[C@@H](Cc2c[nH]c3ccccc23)NC(=O)[C@H](CCCNC(=N)N)NC(=O)[C@@H](CCC(=O)O)NC(=O)[C@H](CCC(N)=O)NC(=O)[C@@H](CCC(=O)O)NC(=O)[C@H](CCCNC(=N)N)NC(=O)[C@@H](Cc2c[nH]c3ccccc23)NC1=O,"Luminex, item: KC","LDLr-/- mice, Western diet, liver","dose not given, 4 weeks",,cytokine level,190 ± 20 pg/g tissue
C[C@H](NCc1ccc(-c2ccc(C(F)(F)F)cc2)cc1)C(N)=O,"passive avoidance, acquisition",APP/PS1 mice,"oral, 10 mg/kg, 336 h, 2 weeks dosing",,step-through latency,33.2 ± 6.94 s
COc1ccccc1-c1n[nH]c2nc(NC3CCN(C(=O)Cc4ccc(F)cc4F)CC3)ncc12,"bead binding, competition bead pull-down, item: LINJ.03.0360",Leishmania donovani axenic amastigote extract,10 µM,relative to: vehicle,relative abundance,0.81
CO[C@H]1CC=C2CCN3CCC4=C(CC(=O)CC4)[C@]23C1,intermittent two-bottle choice,"Wistar rat, 20% ethanol drinking","subcutaneous, 6 mg/kg, 24 h",relative to: ethanol over total fluid intake,ethanol preference,48 ± 5%
COc1ccccc1-c1n[nH]c2nc(N[C@H]3CC[C@H](NS(=O)(=O)CC(C)C)CC3)ncc12,"bead binding, competition bead pull-down, item: LINJ.34.4360",Leishmania donovani extract,10 µM,relative to: vehicle,relative abundance,0.82
CCN(Cc1ccccc1)C(=O)CCc1nc(CN2CCN(C(=O)Cc3ccc(OC)c(OC)c3)CC2)no1,current clamp,"DRG neurons, naive rat",1 µM,,rheobase,486 ± 80.3 pA

# Some of these lines once more:
Structure (SMILES),assay,test system,conditions,how to read,measurement,result
COc1ccccc1-c1n[nH]c2nc(NC3CCN(C(=O)Cc4ccc(F)cc4F)CC3)ncc12,"bead binding, competition bead pull-down, item: LINJ.03.0360",Leishmania donovani axenic amastigote extract,10 µM,relative to: vehicle,relative abundance,0.81
